{"data": "Experimental data collected from several papers", "note": "A part holds a random share of what one study measured. Substitutions count along the parent as printed."}
{"data": "Block 1", "target": "CCNA2, cyclin fold, Cln2 fusion (human)", "technique": "yeast growth competition, sequencing", "sample": "yeast", "setting": "strong parent motif", "relative to": "not given", "reading": "higher = stronger binding", "starting sequence": "INSM1 docking peptide (human); PKAIRKLHFEDEV"}
{"Substitution": "PEAIRKLHFEDEV [K2E]", "normalised enrichment score": 2.44}
{"Substitution": "PKAERKLHFEDEV [I4E]", "normalised enrichment score": 1.74}
{"Substitution": "PKAIRKLHFEDIV [E12I]", "normalised enrichment score": 4.95}
{"Substitution": "PKAIRKLPFEDEV [H8P]", "normalised enrichment score": 2.79}
{"Substitution": "PKAIRKCHFEDEV [L7C]", "normalised enrichment score": 0.349}
{"Substitution": "PKAIRMLHFEDEV [K6M]", "normalised enrichment score": 4.37}
{"Substitution": "PKAIRKLHFRDEV [E10R]", "normalised enrichment score": 4.33}
{"Substitution": "PKAIRKLHLEDEV [F9L]", "normalised enrichment score": 1.21}
{"Substitution": "PFAIRKLHFEDEV [K2F]", "normalised enrichment score": 4.03}
{"Substitution": "PKAIIKLHFEDEV [R5I]", "normalised enrichment score": 0.835}
{"Substitution": "PKQIRKLHFEDEV [A3Q]", "normalised enrichment score": 0.711}
{"Substitution": "PKAIRKLHFEDVV [E12V]", "normalised enrichment score": 4.91}
{"Substitution": "PCAIRKLHFEDEV [K2C]", "normalised enrichment score": 4.85}
{"Substitution": "PKAIRKLHFEDHV [E12H]", "normalised enrichment score": 5.16}
{"Substitution": "PKAIRKLHFEGEV [D11G]", "normalised enrichment score": 4.89}
{"Substitution": "PKATRKLHFEDEV [I4T]", "normalised enrichment score": 4.3}
{"Substitution": "PKAIRKLHFEAEV [D11A]", "normalised enrichment score": 5.01}
{"data": "Block 2", "target": "PABPC1L2, full length, GST fusion (mouse, UniProt A0ABA7IW68)", "technique": "RNAcompete", "form": "RNA", "sample": "in vitro", "concentration": "20 nM", "setting": "7-mer, probes averaged, single round", "relative to": "mean of 7-mers", "reading": "higher = stronger binding", "Construct (chain)": "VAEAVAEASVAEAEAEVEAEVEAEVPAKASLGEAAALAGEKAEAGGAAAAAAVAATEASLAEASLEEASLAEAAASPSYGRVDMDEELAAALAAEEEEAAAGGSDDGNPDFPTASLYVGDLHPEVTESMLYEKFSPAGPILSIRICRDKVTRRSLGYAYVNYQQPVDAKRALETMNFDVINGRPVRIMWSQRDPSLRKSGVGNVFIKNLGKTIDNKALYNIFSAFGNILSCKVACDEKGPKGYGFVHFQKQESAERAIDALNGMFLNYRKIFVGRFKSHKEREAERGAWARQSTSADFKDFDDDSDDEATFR"}
{"Oligonucleotide": "CCCCCAG", "7-mer Z-score": -0.374}
{"Oligonucleotide": "UUAUGGU", "7-mer Z-score": -0.0844}
{"Oligonucleotide": "AACCCCA", "7-mer Z-score": -0.0373}
{"Oligonucleotide": "GGCGUCA", "7-mer Z-score": 0.102}
{"Oligonucleotide": "GGCGCAC", "7-mer Z-score": 0.0207}
{"Oligonucleotide": "AUUCUCG", "7-mer Z-score": -0.271}
{"Oligonucleotide": "GUGUUGU", "7-mer Z-score": -0.344}
{"Oligonucleotide": "UGAAGAC", "7-mer Z-score": -0.126}
{"Oligonucleotide": "AUGGCAC", "7-mer Z-score": -0.0844}
{"Oligonucleotide": "GCGGAAA", "7-mer Z-score": 1.08}
{"Oligonucleotide": "GGCGCAU", "7-mer Z-score": 0.00979}
{"Oligonucleotide": "CUCGACA", "7-mer Z-score": -0.231}
{"Oligonucleotide": "AGACCUG", "7-mer Z-score": -0.325}
{"Oligonucleotide": "AGCGUGG", "7-mer Z-score": 0.155}
{"Oligonucleotide": "AUCACGC", "7-mer Z-score": -0.142}
{"Oligonucleotide": "CACGCUA", "7-mer Z-score": -0.249}
{"Oligonucleotide": "AUUGCGU", "7-mer Z-score": -0.142}
{"Oligonucleotide": "GUGCUUU", "7-mer Z-score": -0.0899}
{"Oligonucleotide": "AGGAGCU", "7-mer Z-score": -0.0047}
{"Oligonucleotide": "GCAUGUA", "7-mer Z-score": 0.0696}
{"Oligonucleotide": "CCACAUC", "7-mer Z-score": -0.233}
{"data": "Block 3", "target": "Hepatocyte nuclear factor 3-beta, forkhead domain (FOXA2, Homo sapiens, UniProt Q9Y261, residues 142-269)", "technique": "protein-binding microarray", "form": "double-stranded DNA, one strand shown", "sample": "in vitro", "concentration": "not given", "setting": "k-mer, scored over probes, only values ≥0.25", "reading": "higher = stronger binding", "Construct (chain)": "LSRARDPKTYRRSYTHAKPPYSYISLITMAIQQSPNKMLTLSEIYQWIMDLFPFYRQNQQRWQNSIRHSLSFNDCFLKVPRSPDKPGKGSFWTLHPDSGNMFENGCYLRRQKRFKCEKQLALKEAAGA"}
{"Oligonucleotide": "TACAATGA", "E-score": 0.258}
{"Oligonucleotide": "TATAGGAA", "E-score": 0.347}
{"Oligonucleotide": "ACGTTATG", "E-score": 0.259}
{"Oligonucleotide": "ATCATAAA", "E-score": 0.271}
{"Oligonucleotide": "ATGTTATG", "E-score": 0.315}
{"Oligonucleotide": "AATCATCA", "E-score": 0.273}
{"Oligonucleotide": "ATATCACA", "E-score": 0.292}
{"Oligonucleotide": "ATAACAAA", "E-score": 0.297}
{"Oligonucleotide": "AACTACTA", "E-score": 0.293}
{"Oligonucleotide": "GATCATAA", "E-score": 0.317}
{"Oligonucleotide": "GGAATACA", "E-score": 0.365}
{"Oligonucleotide": "ATTAGAAC", "E-score": 0.267}
{"Oligonucleotide": "ATGACACA", "E-score": 0.256}
{"Oligonucleotide": "AAGGATAT", "E-score": 0.275}
{"Oligonucleotide": "GTATAATA", "E-score": 0.335}
{"Oligonucleotide": "ATATTGAT", "E-score": 0.353}
{"Oligonucleotide": "GTTAATGA", "E-score": 0.252}
{"Oligonucleotide": "ACAATATA", "E-score": 0.295}
{"Oligonucleotide": "TCATATGA", "E-score": 0.275}
{"Oligonucleotide": "GTTTGATA", "E-score": 0.266}
{"Oligonucleotide": "ACAATACC", "E-score": 0.343}
{"Oligonucleotide": "ACAAACAC", "E-score": 0.391}
{"Oligonucleotide": "ACACCATA", "E-score": 0.267}
{"data": "Block 4", "Substance": "PhoQ, residues 284 288 289 292 302 303 TLASMF", "technique": "Sort-seq", "item": "YFP reporter", "sample": "E. coli", "setting": "PhoQ-PhoP variant library", "added": "10 µM Mg2+", "relative to": "high Mg2+ state", "reading": "higher = stronger signaling"}
{"target": "PhoP, residues 12 14 15 18 19 VHTVL (Escherichia coli, UniProt P23836)", "fold induction": 1.39}
{"target": "PhoP, residues 12 14 15 18 19 ICWRQ (Escherichia coli, UniProt P23836)", "fold induction": 28.2}
{"target": "PhoP, residues 12 14 15 18 19 TQCLL (Escherichia coli, UniProt P23836)", "fold induction": 3.63}
{"note": "For quick reference, copied from above (block 3):"}
{"Oligonucleotide": "TCATATGA", "E-score": 0.275}
{"Oligonucleotide": "GTTTGATA", "E-score": 0.266}
{"Oligonucleotide": "ACAATACC", "E-score": 0.343}
{"Oligonucleotide": "ACAAACAC", "E-score": 0.391}
{"Oligonucleotide": "ACACCATA", "E-score": 0.267}
